Measured values collected from several papers.
Each numbered part is a random draw from the data of one study; scales do not carry over between parts. Positions count from the first letter of the parent shown.

Set 1
Target: Prothrombin, mature alpha-thrombin (F2, Homo sapiens, UniProt P00734)
Method: aptamer microarray, sandwich
Molecule type: DNA with 2'F-ANA
Sample: in vitro
Concentration: 200 nM
Notes: whole 15-mer aptamer, many near background
With: Cy3 exosite-II aptamer, 400 nM
Direction: higher = stronger binding
Sequence: GGTTGGTGTGGTTGG
Modification | mean fluorescence intensity
2'F-ANA at 1 5 7 8 12 | 139 a.u.
2'F-ANA at 1 2 3 5 7 9 14 | 73.6 a.u.
2'F-ANA at 1 3 5 6 7 8 14 15 | 48 a.u.
2'F-ANA at 2 3 6 7 10 11 14 15 | 221 a.u.
2'F-ANA at 4 5 6 8 10 12 13 | 59.9 a.u.
2'F-ANA at 1 6 7 10 11 | 101 a.u.
2'F-ANA at 3 5 6 9 11 12 14 | 66.8 a.u.
2'F-ANA at 3 4 8 13 | 577 a.u.
2'F-ANA at 4 6 7 8 11 13 15 | 214 a.u.
2'F-ANA at 3 4 5 8 | 118 a.u.
2'F-ANA at 1 2 3 11 13 15 | 193 a.u.
2'F-ANA at 1 2 5 6 9 10 15 | 60.6 a.u.
2'F-ANA at 1 5 6 7 8 11 12 13 15 | 80.4 a.u.
2'F-ANA at 2 3 5 10 14 15 | 47.6 a.u.
2'F-ANA at 1 2 9 14 15 | 61.1 a.u.
2'F-ANA at 4 5 7 8 9 11 12 13 14 15 | 52.8 a.u.
2'F-ANA at 2 4 5 7 8 9 10 11 12 13 15 | 49.5 a.u.
2'F-ANA at 2 5 6 8 10 14 15 | 43.9 a.u.
2'F-ANA at 1 2 3 5 6 7 8 14 15 | 48.4 a.u.
2'F-ANA at 1 3 4 5 6 8 10 11 14 15 | 49.3 a.u.
2'F-ANA at 1 2 3 8 9 10 11 14 | 52.4 a.u.
2'F-ANA at 2 3 6 7 8 13 | 681 a.u.
2'F-ANA at 1 3 5 6 7 11 13 15 | 54.1 a.u.

Set 2
Target: ABI1, truncated, D143A, DHFR fusion (Arabidopsis thaliana)
Method: DHFR PCA, deep sequencing
Sample: yeast
Notes: methotrexate growth selection, single substitutions
With: (+)-ABA 200 µM
Baseline: wild-type fitted maximum
Direction: higher = stronger binding
Starting sequence: PYL1, truncated, DHFR fusion (Arabidopsis thaliana); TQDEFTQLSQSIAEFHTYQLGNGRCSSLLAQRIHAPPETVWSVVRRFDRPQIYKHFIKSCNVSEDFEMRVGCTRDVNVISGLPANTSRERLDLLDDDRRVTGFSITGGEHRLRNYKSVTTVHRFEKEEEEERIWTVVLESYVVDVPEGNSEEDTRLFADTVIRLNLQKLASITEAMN
Variant | relative binding score
T120G | 20.7%
H34A | 97.4%
D96Y | 45.1%
K126M | 105%
S42A | 98.2%
C25I | 93.6%
N61K | 110%
A170S | 88.6%
F124E | 101%
S140A | 5.03%
H16N | 15.5%

Set 3
Target: Fragile X messenger ribonucleoprotein 1, C-terminal low-complexity region (Fmr1, Mus musculus, UniProt P35922)
Method: RNA Bind-n-Seq
Molecule type: RNA
Sample: in vitro
Concentration: 200 nM
Notes: whole 134-nt RNA, ends assumed
With: 150 mM KCl
Baseline: input library
Direction: higher = stronger binding
Sequence | log2 enrichment
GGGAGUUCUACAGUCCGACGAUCUCCUGUGCUACACAUCGUAUGUACCGAAUCGGGGAAAAAAGGAAAAAAGGAAAAAAGGGAAAGUAUUAUGUUACGCCGUUCGGAUCUGCAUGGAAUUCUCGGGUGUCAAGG | -0.237
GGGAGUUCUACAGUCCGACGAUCCCUCAAGUCCUGUGCUACACAUCGUAUGUACCGAAUCGGGCGGGGCGGGCGGGAAAGUAUUAUGUUACGCCGUUCGGAUCUGCACUUCCAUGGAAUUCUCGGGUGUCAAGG | 1.38
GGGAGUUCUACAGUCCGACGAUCACCAUGCAGGUGGGCAUCUUUGGGAAGUGGGGCAAGGGGGGGAUAGGGAGGGGGGUAACACUUUGGGAACAGGUAAACCCAGGUCGUUUCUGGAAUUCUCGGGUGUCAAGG | 0.528
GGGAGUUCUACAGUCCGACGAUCCUCAAGUCCUGUGCUACACAUCGUAUGUACCGAAUCGGGAGGGGAGGGGAGGGAAAGUAUUAUGUUACGCCGUUCGGAUCUGCACUUCCAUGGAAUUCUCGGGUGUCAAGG | 1.15
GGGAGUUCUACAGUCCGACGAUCCAAGUCCUGUGCUACACAUCGUAUGUACCGAAUCGGGUUUGGGAAAAAGGGAGGGAAAGUAUUAUGUUACGCCGUUCGGAUCUGCACUUCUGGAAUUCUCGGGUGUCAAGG | 1.07
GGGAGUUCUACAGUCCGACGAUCCCUGUGCUACACAUCGUAUGUACCGAAUCGGGGAAAAAAGGAAAAAAGGGAAAAAAGGGGAAAGUAUUAUGUUACGCCGUUCGGAUCUGCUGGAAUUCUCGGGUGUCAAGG | -0.475
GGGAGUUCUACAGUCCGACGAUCAAGUCCUGUGCUACACAUCGUAUGUACCGAAUCGGAAAAGGGGAAAAGGAAAAGGGAAAGUAUUAUGUUACGCCGUUCGGAUCUGCACUUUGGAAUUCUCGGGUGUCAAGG | -0.606
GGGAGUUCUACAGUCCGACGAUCACCAUGCAGGUGGGCAUCUUUGGGAAGUGGGGCAAGGGGGGGAUAGGGAGGGGGGUGACACUUUGGGAACAGGUGGUCCCAGGUCGUUUCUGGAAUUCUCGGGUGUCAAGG | 0.574
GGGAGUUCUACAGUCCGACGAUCAAGUCCUGUGCUACACAUCGUAUGUACCGAAUCGGAAAAAAAGGUUUUUGGAAAGGAAAGUAUUAUGUUACGCCGUUCGGAUCUGCACUUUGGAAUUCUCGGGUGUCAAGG | -1.4
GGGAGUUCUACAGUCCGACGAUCUUCCUCAAGUCCUGUGCUACACAUCGUAUGUACCGAAUCGGAGGUGGUGGAAAGUAUUAUGUUACGCCGUUCGGAUCUGCACUUCCAGCAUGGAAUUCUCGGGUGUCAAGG | -0.647
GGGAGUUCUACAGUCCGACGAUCUCAAGUCCUGUGCUACACAUCGUAUGUACCGAAUCGGCCCGGGGCCCGGGCCCGGAAAGUAUUAUGUUACGCCGUUCGGAUCUGCACUUCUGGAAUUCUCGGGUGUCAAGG | -1.16
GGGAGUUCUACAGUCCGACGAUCCACAGACAACACGCACCCACACAGACACAGAGGGAAGGGGUUGGGAUGGGGAUAGGGUGCACAGCAGGGCGGGGUAGGACCCCAGCCCCUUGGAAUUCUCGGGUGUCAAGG | 1.24
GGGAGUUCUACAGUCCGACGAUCUUCUUGCCUAUGCUGUGCGCCACACCAUCCAGGUGUACCGGCUCUCCAAGUACAACACGGAAGAAUUCAUCACAGUCUACCCCACCGACCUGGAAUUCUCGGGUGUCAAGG | 0.335
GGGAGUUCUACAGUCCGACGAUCAGUCCUGUGCUACACAUCGUAUGUACCGAAUCGGGGAGGGGUUUUUGGGGAAAGGGGAAAGUAUUAUGUUACGCCGUUCGGAUCUGCACUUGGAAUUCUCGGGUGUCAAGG | 0.85

Set 4
Target: Sal-like protein 4, full length isoform A (SALL4, Homo sapiens, UniProt Q9UJQ4, residues 1-1053)
Sequence of UniProt Q9UJQ4 (whole entry, looked up): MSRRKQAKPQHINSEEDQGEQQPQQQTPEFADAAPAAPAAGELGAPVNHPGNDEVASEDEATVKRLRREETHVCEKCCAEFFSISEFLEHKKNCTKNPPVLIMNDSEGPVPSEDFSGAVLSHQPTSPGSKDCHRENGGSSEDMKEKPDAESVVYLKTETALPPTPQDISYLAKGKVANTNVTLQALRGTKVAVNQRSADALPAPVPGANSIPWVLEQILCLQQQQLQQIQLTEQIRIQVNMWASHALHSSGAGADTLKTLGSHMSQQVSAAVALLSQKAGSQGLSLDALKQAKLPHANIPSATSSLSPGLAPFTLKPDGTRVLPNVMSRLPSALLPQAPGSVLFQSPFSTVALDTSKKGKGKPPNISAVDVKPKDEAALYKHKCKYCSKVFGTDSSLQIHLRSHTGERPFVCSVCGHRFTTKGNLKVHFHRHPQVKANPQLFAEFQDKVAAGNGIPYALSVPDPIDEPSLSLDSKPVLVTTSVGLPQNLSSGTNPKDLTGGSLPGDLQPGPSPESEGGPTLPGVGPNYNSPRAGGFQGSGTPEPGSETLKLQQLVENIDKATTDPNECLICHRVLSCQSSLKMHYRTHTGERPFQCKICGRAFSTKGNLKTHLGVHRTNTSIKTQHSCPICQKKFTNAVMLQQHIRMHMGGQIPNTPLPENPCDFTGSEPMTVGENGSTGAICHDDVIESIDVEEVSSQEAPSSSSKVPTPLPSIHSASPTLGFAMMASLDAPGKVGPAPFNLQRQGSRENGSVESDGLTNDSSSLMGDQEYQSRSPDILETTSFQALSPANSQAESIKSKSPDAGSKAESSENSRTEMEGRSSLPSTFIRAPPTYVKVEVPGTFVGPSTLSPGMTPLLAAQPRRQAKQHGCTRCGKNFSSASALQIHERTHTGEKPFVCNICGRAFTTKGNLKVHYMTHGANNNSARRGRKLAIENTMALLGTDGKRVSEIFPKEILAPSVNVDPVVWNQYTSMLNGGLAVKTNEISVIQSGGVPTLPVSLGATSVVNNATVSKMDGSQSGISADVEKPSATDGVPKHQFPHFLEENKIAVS
Method: universal PBM
Molecule type: double-stranded DNA, one strand shown
Sample: in vitro
Concentration: 600 nM
Notes: 8-mer, flanks averaged, mean of replicates
Direction: higher = stronger binding
Sequence | E-score
TAAGTTAA | 0.298
GGCGAACA | -0.147
GGACATGA | -0.0721
AAGCGAGG | -0.0922
ATACCCTC | -0.00142
TCGAACCA | -0.134
AGCAGAAT | 0.071
AGTTCTGG | -0.141
CAGCGGCC | -0.33
ACGGTATG | 0.013
GCTGACAA | 0.0981
CTGCTGGC | -0.336
CGCTCGGA | -0.124
ACTCGACC | -0.0892
GGACCACC | -0.261
ACCTCATG | -0.072
CGCACGGA | -0.234
TCAGGAAA | 0.0812
ACTTAGTG | 0.0977
AATTTGAC | 0.201
CTGATAAA | 0.282
CTAACAAC | 0.0866
CAATTCCG | -0.185
CACGTGAG | -0.147
ATCTGGGG | -0.292

Set 5
Target: Histone acetyltransferase KAT6A, winged helix 2, GST fusion (KAT6A, Homo sapiens, UniProt Q92794, residues 85-181)
Method: protein binding microarray
Molecule type: double-stranded DNA, one strand shown
Sample: in vitro
Concentration: not given
Notes: 8-mer, flanks averaged, mean of 2 arrays, mostly near background
Baseline: not given
Direction: higher = stronger binding
Target sequence (chain): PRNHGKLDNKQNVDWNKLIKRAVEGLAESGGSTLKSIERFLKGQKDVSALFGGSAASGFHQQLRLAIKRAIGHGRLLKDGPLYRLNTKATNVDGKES
Sequence | E-score
ATTCATTC | -0.103
CATCGTAA | 0.0731
CCGATACC | -0.00308
AATCGAAA | -0.0391
AGGAGATG | -0.132
CGAGTCTA | -0.273
GATGCCAC | 0.0629
CAAATTCA | 0.0845
GGTATGGA | -0.0136
GATCTCGA | 0.059
ATTACATG | -0.106
CGCGACAC | 0.106
AAATTGAC | 0.0829
AAAGCATT | 0.0257
GGAAAGGA | -0.0491
GCGCCAAC | 0.103
CTCGGAAG | -0.00458
AATCGCCT | 0.181
GTTATCCA | -0.168
AAAGATAG | -0.0898
CCACTACG | 0.129
AAACAGTC | -0.216

Set 6
Target: CCNB3, cyclin fold, Cln2 fusion (human)
Method: yeast growth competition, sequencing
Sample: yeast
Notes: weak parent motif
Baseline: not given
Direction: higher = stronger binding
Starting sequence: ANKRD17 docking peptide (human); PSVRRQLFVTVVK; partner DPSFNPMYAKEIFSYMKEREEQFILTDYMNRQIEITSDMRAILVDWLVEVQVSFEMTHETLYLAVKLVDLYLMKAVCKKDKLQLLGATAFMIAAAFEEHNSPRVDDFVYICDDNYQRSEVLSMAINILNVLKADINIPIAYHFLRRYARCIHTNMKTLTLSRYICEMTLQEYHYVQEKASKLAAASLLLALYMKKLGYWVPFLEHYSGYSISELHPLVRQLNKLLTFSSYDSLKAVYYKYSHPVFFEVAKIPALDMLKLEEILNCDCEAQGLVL
Variant | normalised enrichment score
T10A | 1.1
V12A | 0.784
R5K | 0.268
V11A | 1.06
V3A | 0.783
K13A | 0.534
R5A | 0.985
